Assay results of several laboratories.
Protocols differ between the studies behind these lines. ± marks the error that the study gave.
Sctr: Sctr (Rattus norvegicus, UniProt P23811)
Sequence of UniProt P23811 (whole entry, looked up): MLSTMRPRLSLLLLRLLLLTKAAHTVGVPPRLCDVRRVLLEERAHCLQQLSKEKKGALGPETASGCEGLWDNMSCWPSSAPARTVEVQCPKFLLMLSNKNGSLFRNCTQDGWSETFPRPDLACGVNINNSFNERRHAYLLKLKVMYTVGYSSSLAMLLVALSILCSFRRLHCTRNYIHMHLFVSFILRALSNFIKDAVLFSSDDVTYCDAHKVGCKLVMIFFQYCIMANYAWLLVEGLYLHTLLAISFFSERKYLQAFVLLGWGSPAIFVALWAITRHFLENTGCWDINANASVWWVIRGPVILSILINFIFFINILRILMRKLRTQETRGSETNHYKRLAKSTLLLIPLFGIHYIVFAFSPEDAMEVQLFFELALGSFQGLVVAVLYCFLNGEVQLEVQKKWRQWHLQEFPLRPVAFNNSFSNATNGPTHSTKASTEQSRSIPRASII
FFAR2: Free fatty acid receptor 2 (FFAR2, Homo sapiens, UniProt O15552)
Sequence of UniProt O15552 (whole entry, looked up): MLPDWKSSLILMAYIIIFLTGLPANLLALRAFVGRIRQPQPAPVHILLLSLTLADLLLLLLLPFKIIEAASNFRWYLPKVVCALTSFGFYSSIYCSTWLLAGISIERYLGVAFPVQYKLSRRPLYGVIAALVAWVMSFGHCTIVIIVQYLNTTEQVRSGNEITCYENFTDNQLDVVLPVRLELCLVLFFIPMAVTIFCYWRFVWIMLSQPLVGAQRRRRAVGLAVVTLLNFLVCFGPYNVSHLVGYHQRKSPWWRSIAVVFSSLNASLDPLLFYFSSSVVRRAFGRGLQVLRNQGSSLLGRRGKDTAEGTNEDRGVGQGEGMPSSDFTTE
GRPR: Gastrin-releasing peptide receptor (GRPR, Homo sapiens, UniProt P30550)
Sequence of UniProt P30550 (whole entry, looked up): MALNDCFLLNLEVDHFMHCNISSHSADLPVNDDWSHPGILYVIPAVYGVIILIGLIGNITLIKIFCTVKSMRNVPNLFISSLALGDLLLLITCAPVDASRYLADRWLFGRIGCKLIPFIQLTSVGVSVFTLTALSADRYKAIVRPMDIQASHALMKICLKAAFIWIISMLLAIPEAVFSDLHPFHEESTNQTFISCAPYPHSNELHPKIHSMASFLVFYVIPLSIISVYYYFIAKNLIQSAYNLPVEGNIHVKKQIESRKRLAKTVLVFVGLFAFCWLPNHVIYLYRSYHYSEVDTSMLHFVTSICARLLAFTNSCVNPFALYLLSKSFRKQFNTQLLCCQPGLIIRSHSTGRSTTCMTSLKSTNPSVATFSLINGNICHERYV
Sequence of UniProt Q1MX30 (whole entry, looked up): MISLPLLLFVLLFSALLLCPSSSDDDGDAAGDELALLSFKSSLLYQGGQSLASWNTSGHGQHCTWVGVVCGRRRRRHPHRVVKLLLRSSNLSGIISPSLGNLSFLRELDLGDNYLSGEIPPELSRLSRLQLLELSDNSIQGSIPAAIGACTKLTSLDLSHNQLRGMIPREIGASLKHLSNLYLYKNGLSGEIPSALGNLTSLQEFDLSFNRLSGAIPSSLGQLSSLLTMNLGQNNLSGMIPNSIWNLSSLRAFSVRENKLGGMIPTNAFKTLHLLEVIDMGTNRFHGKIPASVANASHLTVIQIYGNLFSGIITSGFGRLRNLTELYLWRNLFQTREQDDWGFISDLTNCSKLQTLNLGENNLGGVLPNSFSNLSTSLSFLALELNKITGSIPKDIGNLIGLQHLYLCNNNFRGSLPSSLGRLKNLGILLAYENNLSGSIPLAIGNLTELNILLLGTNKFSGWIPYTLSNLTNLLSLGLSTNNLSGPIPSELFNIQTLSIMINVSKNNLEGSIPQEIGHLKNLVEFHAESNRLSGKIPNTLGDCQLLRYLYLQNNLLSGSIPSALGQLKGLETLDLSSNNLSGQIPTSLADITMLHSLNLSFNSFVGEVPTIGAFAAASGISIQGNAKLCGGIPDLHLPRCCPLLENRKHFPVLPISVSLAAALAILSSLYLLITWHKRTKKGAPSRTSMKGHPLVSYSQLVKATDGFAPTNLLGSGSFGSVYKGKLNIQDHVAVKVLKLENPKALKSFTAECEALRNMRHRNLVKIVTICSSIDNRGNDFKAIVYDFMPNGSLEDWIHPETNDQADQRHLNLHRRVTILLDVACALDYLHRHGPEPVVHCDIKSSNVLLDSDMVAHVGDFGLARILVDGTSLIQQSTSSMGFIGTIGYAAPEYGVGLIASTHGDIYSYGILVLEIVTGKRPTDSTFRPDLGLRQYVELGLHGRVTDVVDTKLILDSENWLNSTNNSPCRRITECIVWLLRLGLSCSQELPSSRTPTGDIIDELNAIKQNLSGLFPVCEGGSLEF
Sequence of UniProt P34972 (whole entry, looked up): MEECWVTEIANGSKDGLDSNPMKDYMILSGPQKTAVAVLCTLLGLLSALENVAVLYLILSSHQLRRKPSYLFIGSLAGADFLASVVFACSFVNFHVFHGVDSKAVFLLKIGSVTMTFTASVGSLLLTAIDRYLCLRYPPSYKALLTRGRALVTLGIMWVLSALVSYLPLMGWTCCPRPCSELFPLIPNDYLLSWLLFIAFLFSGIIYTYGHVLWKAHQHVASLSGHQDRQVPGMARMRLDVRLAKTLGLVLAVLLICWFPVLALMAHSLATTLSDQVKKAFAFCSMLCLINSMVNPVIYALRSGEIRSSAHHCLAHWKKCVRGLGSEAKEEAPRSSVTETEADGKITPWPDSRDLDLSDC
Sequence of UniProt Q03111 (whole entry, looked up): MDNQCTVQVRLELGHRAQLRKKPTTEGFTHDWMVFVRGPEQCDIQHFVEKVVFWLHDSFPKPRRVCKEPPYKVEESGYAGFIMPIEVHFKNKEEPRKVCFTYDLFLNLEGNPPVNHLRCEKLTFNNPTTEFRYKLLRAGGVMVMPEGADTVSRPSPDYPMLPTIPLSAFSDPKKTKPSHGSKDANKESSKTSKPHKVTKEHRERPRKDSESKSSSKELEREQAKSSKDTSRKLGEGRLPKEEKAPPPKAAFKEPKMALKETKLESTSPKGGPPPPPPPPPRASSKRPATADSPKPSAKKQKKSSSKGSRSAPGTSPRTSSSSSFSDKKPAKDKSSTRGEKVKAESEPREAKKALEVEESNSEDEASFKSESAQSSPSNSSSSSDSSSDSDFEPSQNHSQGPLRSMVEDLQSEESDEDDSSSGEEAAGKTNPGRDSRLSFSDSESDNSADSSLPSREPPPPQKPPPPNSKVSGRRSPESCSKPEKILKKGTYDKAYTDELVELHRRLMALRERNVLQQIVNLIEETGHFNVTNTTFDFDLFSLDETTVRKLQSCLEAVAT
Sequence of UniProt Q16740 (whole entry, looked up): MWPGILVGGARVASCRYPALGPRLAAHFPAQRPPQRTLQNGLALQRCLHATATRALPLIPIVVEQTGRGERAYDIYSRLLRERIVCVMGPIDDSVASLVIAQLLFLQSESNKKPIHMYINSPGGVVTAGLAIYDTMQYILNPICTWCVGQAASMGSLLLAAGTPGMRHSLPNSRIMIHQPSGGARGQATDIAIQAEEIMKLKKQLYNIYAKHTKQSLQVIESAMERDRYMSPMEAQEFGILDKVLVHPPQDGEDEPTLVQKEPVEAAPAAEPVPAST
Sequence of UniProt Q8NER1 (whole entry, looked up): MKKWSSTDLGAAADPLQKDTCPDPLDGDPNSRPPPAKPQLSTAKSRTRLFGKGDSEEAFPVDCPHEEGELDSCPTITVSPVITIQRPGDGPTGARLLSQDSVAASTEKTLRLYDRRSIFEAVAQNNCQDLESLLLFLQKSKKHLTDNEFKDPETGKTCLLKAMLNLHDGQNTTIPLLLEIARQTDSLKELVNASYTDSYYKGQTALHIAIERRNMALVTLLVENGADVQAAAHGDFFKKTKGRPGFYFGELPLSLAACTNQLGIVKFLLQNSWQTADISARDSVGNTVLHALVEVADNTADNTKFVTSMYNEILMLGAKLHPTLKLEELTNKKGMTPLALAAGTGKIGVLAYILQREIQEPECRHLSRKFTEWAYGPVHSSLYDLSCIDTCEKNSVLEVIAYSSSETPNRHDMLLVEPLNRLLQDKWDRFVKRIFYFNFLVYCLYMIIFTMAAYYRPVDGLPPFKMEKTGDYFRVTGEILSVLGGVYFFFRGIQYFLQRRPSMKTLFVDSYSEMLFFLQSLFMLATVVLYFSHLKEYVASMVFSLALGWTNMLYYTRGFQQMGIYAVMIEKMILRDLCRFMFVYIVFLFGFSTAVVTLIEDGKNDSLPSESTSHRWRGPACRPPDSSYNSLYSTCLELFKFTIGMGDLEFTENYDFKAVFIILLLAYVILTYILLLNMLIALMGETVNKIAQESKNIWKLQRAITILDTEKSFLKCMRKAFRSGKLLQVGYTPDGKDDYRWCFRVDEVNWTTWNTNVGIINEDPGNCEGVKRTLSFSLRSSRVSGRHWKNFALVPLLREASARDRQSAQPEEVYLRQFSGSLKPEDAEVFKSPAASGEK
Sequence of UniProt P32241 (whole entry, looked up): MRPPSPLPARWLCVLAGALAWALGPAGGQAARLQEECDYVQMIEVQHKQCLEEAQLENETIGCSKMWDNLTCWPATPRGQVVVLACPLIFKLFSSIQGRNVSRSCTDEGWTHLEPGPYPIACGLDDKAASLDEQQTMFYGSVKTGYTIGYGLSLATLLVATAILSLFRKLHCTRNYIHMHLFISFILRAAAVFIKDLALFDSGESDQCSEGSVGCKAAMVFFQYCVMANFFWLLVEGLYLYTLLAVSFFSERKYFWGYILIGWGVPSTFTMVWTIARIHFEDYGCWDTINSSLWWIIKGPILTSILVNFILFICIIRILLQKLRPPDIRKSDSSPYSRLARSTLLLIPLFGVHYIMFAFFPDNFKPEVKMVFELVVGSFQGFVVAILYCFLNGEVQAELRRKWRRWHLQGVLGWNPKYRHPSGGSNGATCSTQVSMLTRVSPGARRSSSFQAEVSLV

CSCC[C@H](NC(=O)[C@H](CO)NC(=O)[C@H](Cc1ccc(O)cc1)NC(=O)[C@@H](N)CO)C(=O)N[C@@H](CCC(=O)O)C(=O)N[C@@H](Cc1cnc[nH]1)C(=O)N[C@@H](Cc1ccccc1)C(=O)N[C@@H](CCCNC(=N)N)C(=O)N[C@@H](Cc1c[nH]c2ccccc12)C(=O)NCC(=O)N[C@@H](CCCCN)C(=O)N1CCC[C@H]1C(=O)N[C@H](C(=O)NCC(=O)N[C@@H](CCCCN)C(=O)N[C@@H](CCCCN)C(=O)N[C@@H](CCCNC(=N)N)C(=O)N[C@@H](CCCNC(=N)N)C(=O)N1CCC[C@H]1C(=O)N[C@H](C(=O)N[C@@H](CCCCN)C(=O)N[C@H](C(=O)N[C@@H](Cc1ccc(O)cc1)C(=O)N1CCC[C@H]1C(=O)N[C@@H](CC(N)=O)C(=O)NCC(=O)N[C@@H](C)C(=O)N[C@@H](CCC(=O)O)C(=O)N[C@@H](CC(=O)O)C(=O)N[C@@H](CCC(=O)O)C(=O)N[C@@H](CO)C(=O)N[C@@H](C)C(=O)N[C@@H](CCC(=O)O)C(=O)N[C@@H](C)C(=O)N[C@@H](Cc1ccccc1)C(=O)N1CCC[C@H]1C(=O)N[C@@H](CC(C)C)C(=O)N[C@@H](CCC(=O)O)C(=O)N[C@@H](Cc1ccccc1)C(=O)O)C(C)C)C(C)C)C(C)C — EC50 (GPR139 (Homo sapiens, UniProt Q6DWJ6); calcium mobilisation, agonist, Fluo-4; CHO transfected; from mean pEC50): 2.04 µM
CC(C)C[C@H](NC(=O)CNC(=O)[C@H](CCC(N)=O)NC(=O)[C@H](CC(C)C)NC(=O)[C@H](CC(C)C)NC(=O)[C@H](CCCNC(=N)N)NC(=O)[C@H](CCC(N)=O)NC(=O)[C@H](CC(C)C)NC(=O)[C@H](CCCNC(=N)N)NC(=O)[C@H](C)NC(=O)[C@H](C)NC(=O)[C@H](CC(=O)O)NC(=O)[C@H](CCC(N)=O)NC(=O)[C@H](CC(C)C)NC(=O)[C@H](CCCNC(=N)N)NC(=O)[C@H](CO)NC(=O)[C@H](CC(C)C)NC(=O)[C@H](CCC(=O)O)NC(=O)[C@H](CO)NC(=O)[C@@H](NC(=O)[C@H](Cc1ccccc1)NC(=O)[C@@H](NC(=O)CNC(=O)[C@H](CC(=O)O)NC(=O)[C@H](CO)NC(=O)[C@@H](N)Cc1c[nH]cn1)[C@@H](C)O)[C@@H](C)O)C(=O)N[C@H](C(N)=O)C(C)C — EC50 (Sctr; cAMP production, agonist; CHO-SecR; 30 min, 37 °C, together with: 1 mM IBMX): 0.0001 ± 4e-05 µM
O=C(O)COc1cccc(NC(=O)c2cc(-c3cccc(F)c3)ccc2F)c1 — EC50 (PTGER2 (Homo sapiens, UniProt P43116); calcium signal, agonist, fluorescence): 0.002 µM
CC(C)NC(=O)c1ccc2nc(-c3ccccc3)cn2c1 — EC50 (Protein ENL, YEATS domain (MLLT1, Homo sapiens, UniProt Q03111); cell-based): 9 µM
CC(C)(C)C(=O)O — EC50 (FFAR2; agonist): 6610 µM
CC(C)C[C@H](NC(=O)CNC(=O)[C@H](CCC(N)=O)NC(=O)[C@H](CC(C)C)NC(=O)[C@H](CC(C)C)NC(=O)[C@H](CCCN=C(N)N)NC(=O)[C@H](CCC(N)=O)NC(=O)[C@H](CC(C)C)NC(=O)[C@H](CCCN=C(N)N)NC(=O)[C@H](C)NC(=O)[C@H](CO)NC(=O)[C@H](CC(=O)O)NC(=O)[C@H](CCC(N)=O)NC(=O)[C@H](CC(C)C)NC(=O)[C@H](CCCN=C(N)N)NC(=O)[C@H](CO)NC(=O)[C@H](CC(C)C)NC(=O)[C@H](CCC(=O)O)NC(=O)[C@H](CO)NC(=O)[C@@H](NC(=O)[C@H](Cc1ccccc1)NC(=O)[C@@H](NC(=O)CNC(=O)[C@H](CC(=O)O)NC(=O)[C@H](CO)NC(=O)[C@@H](N)Cc1cnc[nH]1)[C@@H](C)O)[C@@H](C)O)C(=O)N[C@H](C(N)=O)C(C)C — EC50 (Sctr; cAMP production, agonist; CHO-SecR; 30 min, 37 °C, together with: 1 mM IBMX): 5e-05 µM
CCC(CC)N[C@H](Cc1ccccc1)C(=O)N[C@@H](CCC(N)=O)C(=O)N[C@@H](Cc1c[nH]c2ccccc12)C(=O)N[C@@H](C)C(=O)N[C@H](C(=O)N[C@H](C)C(=O)N[C@@H](Cc1c[nH]cn1)C(=O)N[C@@H](CC(C)C)C(=O)N[C@@H](CC(C)C)C(N)=O)C(C)C — EC50 (GRPR; inositol phosphate formation, agonist; HuTu80; 45 min, 37 °C; baseline: 1 µM GRP): 0.017 ± 0.001 µM
COc1ccc(Cn2c(=O)n(O)c(=O)c3ccccc32)cc1 — EC50 (Flap endonuclease 1 (Homo sapiens, UniProt P39748); target engagement in cells): 6.8 µM
CC[C@H](C)[C@H](NC(=O)CNC(=O)C1CCN(C(=O)[C@H](CO)NC(=O)[C@@H](N)Cc2c[nH]cn2)CC1)C(=O)N[C@@H](Cc1ccccc1)C(=O)N[C@H](C(=O)N[C@@H](CC(=O)O)C(=O)N[C@@H](CO)C(=O)N[C@@H](Cc1ccc(O)cc1)C(=O)N[C@@H](CO)C(=O)N[C@@H](CCCNC(=N)N)C(=O)N[C@@H](Cc1ccc(O)cc1)C(=O)N[C@@H](CCCNC(=N)N)C(=O)N[C@@H](CCCCN)C(=O)NC(C)(C)C(=O)N[C@@H](C)C(=O)N[C@@H](C)C(=O)N[C@H](C(=O)N[C@@H](CCCCN)C(=O)N[C@@H](CCCCN)C(=O)N[C@@H](Cc1ccc(O)cc1)C(=O)N[C@@H](CC(C)C)C(=O)N[C@@H](C)C(=O)N[C@@H](C)C(=O)N[C@H](C(=O)N[C@@H](CC(C)C)C(=O)NC(C)(C)C(=O)N[C@@H](CCCCN)C(=O)N[C@@H](CCCNC(=N)N)C(=O)N[C@@H](Cc1ccc(O)cc1)C(=O)N[C@@H](CCCCN)C(=O)N[C@@H](CCC(N)=O)C(=O)N[C@@H](CCCCN)C(=O)N[C@H](C(=O)N[C@@H](CCCCN)C(=O)N[C@@H](CC(N)=O)C(=O)N[C@H](CCCCN)C(N)=O)C(C)C)C(C)C)C(C)C)[C@@H](C)O — EC50 (VIPR1 (Homo sapiens, UniProt P32241); cAMP production, agonist; PANC-1 transfected with receptor): > 1 µM
O=C(O)C1=CCCC1 — EC50 (FFAR2; agonist): 251 µM
CC(C)C[C@@H]1NC(=O)[C@H](Cc2c[nH]cn2)NC(=O)[C@@H](C)NC(=O)[C@H](C(C)C)NC(=O)[C@H](C)NC(=O)[C@H](Cc2c[nH]c3ccccc23)NC(=O)[C@H](CCC(N)=O)NC(=O)[C@H](N)CSSC[C@@H](C(N)=O)NC1=O — EC50 (GRPR; inositol phosphate generation, agonist; BALB/3T3 transfected with human GRPR; 45 min, 37 °C; baseline: 1 µM GRP): 0.194 ± 0.011 µM
CC(C)C[C@H](NC(=O)CNC(=O)[C@H](CCC(N)=O)NC(=O)[C@H](CC(C)C)NC(=O)[C@H](CC(C)C)NC(=O)[C@H](CCCNC(=N)N)NC(=O)[C@H](CCC(N)=O)NC(=O)[C@H](CC(C)C)NC(=O)[C@H](CCCNC(=N)N)NC(=O)[C@H](C)NC(=O)[C@H](CO)NC(=O)[C@H](C)NC(=O)[C@H](CCC(N)=O)NC(=O)[C@H](CC(C)C)NC(=O)[C@H](CCCNC(=N)N)NC(=O)[C@H](CO)NC(=O)[C@H](CC(C)C)NC(=O)[C@H](CCC(=O)O)NC(=O)[C@H](CO)NC(=O)[C@@H](NC(=O)[C@H](Cc1ccccc1)NC(=O)[C@@H](NC(=O)CNC(=O)[C@H](CC(=O)O)NC(=O)[C@H](CO)NC(=O)[C@@H](N)Cc1c[nH]cn1)[C@@H](C)O)[C@@H](C)O)C(=O)N[C@H](C(N)=O)C(C)C — EC50 (Sctr; cAMP production, agonist; CHO-SecR; 30 min, 37 °C, together with: 1 mM IBMX): 0.0026 ± 0.0006 µM
CC(C)C[C@H](NC(=O)[C@H](CCCNC(=N)N)NC(=O)[C@H](CCC(N)=O)NC(=O)[C@H](CC(=O)O)NC(=O)[C@H](CC(C)C)NC(=O)[C@@H]1CCCN1C(=O)[C@H](CCC(=O)O)NC(=O)[C@@H]1CCCN1C(=O)[C@H](CCCNC(=N)N)NC(=O)CNC(=O)[C@@H](N)CCCCN)C(=O)N[C@@H](Cc1c[nH]c2ccccc12)C(=O)N[C@@H](CCCCN)C(=O)N[C@@H](Cc1c[nH]cn1)C(=O)N[C@H](C(=O)NCC(=O)NCC(=O)NCC(=O)N[C@@H](CC(=O)O)C(=O)N[C@@H](Cc1ccc(OS(=O)(=O)O)cc1)C(=O)N1CCC[C@H]1C(=O)N1CCC[C@H]1C(=O)N1CCC[C@H]1C(=O)NCC(=O)N[C@@H](C)C(=O)N[C@@H](CC(N)=O)C(=O)N1CCC[C@H]1C(=O)N[C@@H](CCCCN)C(=O)N[C@@H](Cc1c[nH]cn1)C(=O)N[C@@H](CC(=O)O)C(=O)N1CCC[C@H]1C(=O)N1CCC[C@H]1C(=O)N1CCC[C@H]1C(=O)N[C@@H](CCCNC(=N)N)C(=O)N[C@@H](CC(N)=O)C(=O)N1CCC[C@H]1C(=O)NCC(=O)N[C@@H](Cc1c[nH]cn1)C(=O)N[C@@H](Cc1c[nH]cn1)C(=O)O)C(C)C — EC50 (Receptor kinase-like protein Xa21 (XA21, Oryza sativa subsp. indica, UniProt Q1MX30); ROS production, agonist, L-012 chemiluminescence; Oryza sativa, Kitaake Ubi::XA21, leaves; 3 h): ~0.07 µM
COc1cc(CNC(=O)CCCC/C=C/C(C)C)ccc1N(S(C)(=O)=O)S(C)(=O)=O — EC50 (TRPV1 (Homo sapiens, UniProt Q8NER1); calcium signal, agonist): > 10 µM
O=C1C2=C(CCN(Cc3ccccc3)C2)N2CCN=C2N1Cc1ccc(C(F)(F)F)cc1 — EC50 (CLPP (Homo sapiens, UniProt Q16740); enzyme activity, activator; together with: Ac-WLA-AMC substrate): 0.131 ± 0.0178 µM
CC(C)C[C@H](NC(=O)CNC(=O)[C@H](CCC(N)=O)NC(=O)[C@H](CC(C)C)NC(=O)[C@H](CC(C)C)NC(=O)[C@H](CCCNC(=N)N)NC(=O)[C@H](CCC(N)=O)NC(=O)[C@H](C)NC(=O)[C@H](CCCNC(=N)N)NC(=O)[C@H](C)NC(=O)[C@H](CO)NC(=O)[C@H](CC(=O)O)NC(=O)[C@H](CCC(N)=O)NC(=O)[C@H](CC(C)C)NC(=O)[C@H](CCCNC(=N)N)NC(=O)[C@H](CO)NC(=O)[C@H](CC(C)C)NC(=O)[C@H](CCC(=O)O)NC(=O)[C@H](CO)NC(=O)[C@@H](NC(=O)[C@H](Cc1ccccc1)NC(=O)[C@@H](NC(=O)CNC(=O)[C@H](CC(=O)O)NC(=O)[C@H](CO)NC(=O)[C@@H](N)Cc1c[nH]cn1)[C@@H](C)O)[C@@H](C)O)C(=O)N[C@H](C(N)=O)C(C)C — EC50 (Sctr; cAMP production, agonist; CHO-SecR; 30 min, 37 °C, together with: 1 mM IBMX): 0.0345 ± 0.0055 µM
CC(C)[C@H](C(=O)Nc1ncc(F)s1)c1ccc(Cl)cc1 — EC50 (Free fatty acid receptor 2, with β-arrestin 2 (FFAR2, Homo sapiens, UniProt O15552); β-arrestin 2 recruitment, agonist, NanoBiT; 25 min): 4.15 µM
CC(C)C[C@H](NC(=O)[C@H](CC(C)C)NC(=O)[C@H](Cc1c[nH]cn1)NC(=O)[C@@H](C)NC(=O)[C@@H](NC(=O)[C@H](C)NC(=O)[C@H](Cc1c[nH]c2ccccc12)NC(=O)[C@H](CCC(N)=O)NC(=O)[C@H](N)Cc1ccccc1)C(C)C)C(N)=O — EC50 (GRPR; inositol phosphate, agonist): 0.00154 µM
C[C@@]1(c2nc(-c3ccc(F)c4cn[nH]c34)no2)CCCN(C(=O)c2ccc(F)nc2)C1 — EC50 (CNR2 (Homo sapiens, UniProt P34972); cAMP, agonist, luciferase): 0.0081 µM

For quick reference, copied from above:
C[C@@]1(c2nc(-c3ccc(F)c4cn[nH]c34)no2)CCCN(C(=O)c2ccc(F)nc2)C1 — EC50 (CNR2 (Homo sapiens, UniProt P34972); cAMP, agonist, luciferase): 0.0081 µM
